Assay results collected from several papers.
Compare with care: the assays were run in different laboratories. “And” joins repeats or separate records; there may be more than shown. ± gives the spread as reported. ≈ marks a conversion by molar mass, not a printed value.

COc1cccc(-c2ccc(NC(=O)C3=C(C(=O)O)CCC3)c(F)c2)c1  AUC(0-t) (human male, plasma; oral, 30 mg once daily, day 13, geometric mean): 189000 ng·h/mL
O=C(Nc1c(Cl)cncc1Cl)c1ccc(OC(F)F)c(OCC2CC2)c1  elimination half-life (human adults, plasma; topical, 0.3% cream once daily, 14 days): 96 h
CS/C(S)=N/CCCC[S+](C)[O-] (racemic)  mRNA level (RT-PCR; Sprague-Dawley rat female, mammary gland; oral gavage, 200 mg/kg, 4 days; reference: vehicle): 0.12 fold change
CC1(C)C(/C=C/C=C/C=C/C=C2\N(CCCCS(=O)(=O)O)c3ccc4ccccc4c3C2(C)C)=[N+](CCCCS(=O)(=O)[O-])c2ccc3ccccc3c21  time to maximal fluorescence (NIR fluorescence imaging; C57BL/6 mouse, inguinal lymph node; intradermal, 20 µL, 500 µM): 15 min
O=C(O)[C@H](c1ccccc1Cl)N1CCc2sccc2C1  deviation from nominal (HPLC-MS/MS; feline EDTA plasma; 72 h, -80 °C, storage stability): -1%
CC(=O)Nc1ccc(O[C@@H]2O[C@H](C(=O)O)[C@@H](O)[C@H](O)[C@H]2O)cc1  AUC(0-12 h) (healthy volunteers, both sexes, plasma; oral, dose not given, day 6, added: favipiravir, extended): 98300 ng·h/mL
CCCOc1ccc([C@H]2CNC(=O)N2c2ccc3[nH]cnc3c2)cc1  AUC(0-12h) (human volunteers fasted, plasma; oral solution, 200 mg single dose, day 1, geometric mean): 1310 ng·h/mL
C[C@@H](Oc1ccc(S(C)(=O)=O)cc1C(=O)N1C[C@@H]2C[C@]2(c2cc(C(F)(F)F)on2)C1)C(F)(F)F  trough concentration (human male, plasma; oral, 50 mg once daily, 312 h): 445 nM
O=C(O)/C=C/c1ccc(O)c(O)c1  MRT(0-t) (UPLC-MS/MS; Wistar rat, microcirculation dysfunction model, plasma; oral, 100 mg/kg Salvia miltiorrhiza stem-leaf extract FS): 7.08 ± 0.71 h
COc1ccc(-n2nc(C(N)=O)c3c2C(=O)N(c2ccc(N4CCCCC4=O)cc2)CC3)cc1  predose plasma concentration (healthy human, plasma; oral, 10 mg, after 3-day washout): ≤ 2.98 ng/mL
O=S(=O)(c1cc(F)c(O)c2ncccc12)N1CCCC1  free concentration (rat Sprague-Dawley male, brain; oral, 10 mg/kg, 4 h): 35 nM
CC(C)[C@H](N)C(=O)N[C@@H](Cc1c[nH]cn1)C(=O)N1CCC[C@H]1C(=O)N[C@@H](CCCCN)C(=O)N[C@@H](CCC(N)=O)C(=O)N[C@@H](Cc1c[nH]cn1)C(=O)N[C@@H](CCCNC(=N)N)C(=O)NCC(=O)NCC(=O)N[C@@H](CO)C(=O)N[C@@H](Cc1ccc(O)cc1)C(=O)NCCCC[C@H](NC(=O)[C@H](Cc1ccc(O)cc1)NC(=O)[C@H](CO)NC(=O)CNC(=O)CNC(=O)[C@H](CCCNC(=N)N)NC(=O)[C@H](Cc1c[nH]cn1)NC(=O)[C@H](CCC(N)=O)NC(=O)[C@H](CCCCN)NC(=O)[C@@H]1CCCN1C(=O)[C@H](Cc1c[nH]cn1)NC(=O)[C@@H](N)C(C)C)C(=O)NCCCC[C@H](NC(=O)[C@H](CCCCNC(=O)[C@H](Cc1ccc(O)cc1)NC(=O)[C@H](CO)NC(=O)CNC(=O)CNC(=O)[C@H](CCCNC(=N)N)NC(=O)[C@H](Cc1c[nH]cn1)NC(=O)[C@H](CCC(N)=O)NC(=O)[C@H](CCCCN)NC(=O)[C@@H]1CCCN1C(=O)[C@H](Cc1c[nH]cn1)NC(=O)[C@@H](N)C(C)C)NC(=O)[C@H](Cc1ccc(O)cc1)NC(=O)[C@H](CO)NC(=O)CNC(=O)CNC(=O)[C@H](CCCNC(=N)N)NC(=O)[C@H](Cc1c[nH]cn1)NC(=O)[C@H](CCC(N)=O)NC(=O)[C@H](CCCCN)NC(=O)[C@@H]1CCCN1C(=O)[C@H](Cc1c[nH]cn1)NC(=O)[C@@H](N)C(C)C)C(=O)N[C@@H](CCCCNC(=O)CON=Cc1ccc(F)cc1)C(=O)O [fluorine-18 labelled]  blood half-life (wild-type mouse; intravenous, 150 µCi): 0.267 ± 0.01 h
Cc1nc2cccc(OCC(C)(C)C(=O)NC(C)C)c2c(N)c1C(=O)O  excreted dose (Sprague-Dawley rat, female, urine and feces; oral, 10 mg/kg, 72 h): 91.4%
N#CN1C[C@H](n2nc(-c3ccc(Oc4ccc(Cl)cn4)cc3)c(C(N)=O)c2N)CCC12CC2  MRT (human, plasma; oral, 100 to 800 mg, single ascending dose): 22.9 to 31.1 h
CCNC(=O)c1cc2c(-c3cc(N4CCCCS4(=O)=O)ccc3Oc3ccc(F)cc3F)cn(C)c(=O)c2[nH]1  oral bioavailability (Sprague-Dawley rat, plasma; oral vs intravenous, 3 mg/kg oral, 1 mg/kg i.v.): 2.9%
COc1ccc(-n2nc(C(N)=O)c3c2C(=O)N(c2ccc(N4CCCCC4=O)cc2)CC3)cc1  AUC(0-tlast) (human male and female, plasma; oral, 10 mg, geometric least squares mean): 1680 ng·h/mL
Cc1c2c(n(-c3ccc(F)cc3Cl)c1-c1ccc(OS(=O)(=O)CCC(F)(F)F)cc1)CCN(N1CCCCC1)C2=O  plasma concentration (LC-MS/MS; cynomolgus monkey 4, plasma; intravenous infusion, 0.06 mg/kg, 90 min, total concentration mid-point of PET): 20 nM
Cc1ccc(-c2cc(C(F)(F)F)nn2-c2ccc(S(N)(=O)=O)cc2)cc1  unbound fraction (equilibrium dialysis; dogs, albumin H2 allele, plasma; 4 µM): 1.69 ± 0.19%
COc1cc(/C=C/C(=O)CC(=O)/C=C/c2ccc(O)c(OC)c2)ccc1O  brain uptake ratio (I-125 label, gamma counting; C57BL/6J mouse, hippocampus; IN 10 µg/mouse vs IP 100 µg/mouse, 30 min; reference: intranasal over intraperitoneal): 5.21
CC[C@H](C)[C@@H]1NC(=O)[C@H](Cc2ccc(O)cc2)NC(=O)[C@@H](N)CSSC[C@@H](C(=O)N2CCC[C@H]2C(=O)N[C@@H](CC(C)C)C(=O)NCC(N)=O)NC(=O)[C@H](CC(N)=O)NC(=O)[C@H](CCC(N)=O)NC1=O  Vd (male Wistar rat, plasma; intravenous, 0.1 mg/kg): 0.085 L/kg
CC[C@@H]1CN(C(=O)NCC(F)(F)F)C[C@@H]1c1cnc2cnc3[nH]ccc3n12  pharmacokinetics (population pharmacokinetic model; human; covariates sex, race, pH-modifying drugs, CYP3A inhibitors, methotrexate): no effect
Cc1nc(-c2ccc(OCC(C)C)c(C#N)c2)sc1C(=O)O  AUC(0-24) (adults with gout, plasma; oral, 40 mg, added: verinurad 20 mg): 2520 ng·h/mL
COc1ccc(Nc2c3ccccc3nc3occ(Cl)c23)cc1  elimination half-life (Wistar rat, male, plasma; intravenous, 4.7 mg/kg): 0.994 ± 0.138 h
O=C(NC[C@H]1CN(c2ccc(N3CCOCC3=O)cc2)C(=O)O1)c1ccc(Cl)s1  MRT(0-inf) (Sprague-Dawley rat, male, plasma; oral, 10 mg/kg, added: naringenin 10 mg/kg/day oral, 2 weeks): 7.43 ± 2.32 h
Cc1ccc(NC(=O)c2ccc(CN3CCN(C)CC3)cc2)cc1Nc1nccc(-c2cncc(-c3oncc3C)c2)n1  AUC(0-t) (older healthy human adults, plasma; oral, 75.0 mg single dose, fed, mean): 58400 ng·h/mL
CN(C)C(=O)c1cc2cnc(Nc3ccc(N4CCNCC4)cn3)nc2n1C1CCCC1  QT prolongation grade 3 (patients Rb+ solid tumours; oral, dose not given, all doses treatment-related): 2%
Cn1c(-c2ccc(C(N)=O)cc2F)nnc1C(C)(C)Oc1c(F)cc(Cl)cc1F  AUC(0-inf) mean (young non-Japanese subjects, plasma; oral, 50 mg single dose, day 1): 8740 ng·h/mL
CS(=O)(=O)OC[C@H](O)[C@@H]1CO1  RBC/plasma partition coefficient (Wistar rat, male, red blood cells and plasma; intraperitoneal, 500 mg/kg treosulfan, 1 h): 0.62 and 0.57
C[N+]1(CC(=O)OC2CCCCC2)CCCCC1.[I-]  aqueous solubility (phosphate buffer with 2% DMSO; 90 min, pH 7.4, theoretical maximum 200 µM): 187 µM
CCCCCCCCCCCCCNCC(=O)N(CC(=O)N(CCCCN)CC(=O)N(CCN)CC(=O)N(CC(N)=O)Cc1ccc(F)cc1)Cc1ccc(F)cc1  acetonitrile at elution (preparative RP-HPLC C18; water to acetonitrile gradient; 0.05% TFA in eluent; higher = more hydrophobic): 69.3%
CCc1nc(C(N)=O)c(Nc2ccc(N3CCC(N4CCN(C)CC4)CC3)c(OC)c2)nc1NC1CCOCC1  AUC(0-480 h) (human, moderate hepatic impairment, plasma; oral, 10 mg, single dose, fasted, geometric LS mean): 316 ng·h/mL
Cc1ccc(C(=O)c2oc3ccc4c(C)cc(=O)oc4c3c2C)cc1  maximum solubility (0.1 M sodium acetate with 0.01% Triton X-100; pH 5.5): 2.5 µM
CC#CC(=O)N1CCC[C@H]1c1nc(-c2ccc(C(=O)Nc3ccccn3)cc2)c2c(N)nccn12  AUC(0-12 h) (Japanese patients, plasma; oral, 100 mg single dose, fasting, geometric mean): 891 ng·h/mL
CN[C@@H]1[C@H](O)[C@H](NC)[C@H]2O[C@]3(O)[C@H](O[C@@H]2[C@H]1O)O[C@H](C)C[C@H]3NC(=O)Cc1ccc(Cl)cn1  parent remaining (glutathione conjugation; rat liver S9; 100 µM, 2 h, pH 7.4, added: glutathione 0.2 mM): 99.4%
CCN1CCN(c2cc3c(cc2F)c(=O)c(C(=O)O)cn3C2CC2)CC1  CL (broiler chickens Ross, plasma; intravenous and oral, population PK typical value): 13.8 mL/min
CC1(C)S[C@@H]2[C@H](NC(=O)[C@H](N)c3ccc(O)cc3)C(=O)N2[C@H]1C(=O)O  AUC (male ICR mouse, plasma; oral, 3 mg/kg, 24 h): 3420 ng·h/mL
CCCC[C@H](NC(C)=O)C(=O)N[C@H]1CCC(=O)NC[C@@H](C(=O)N[C@@H](Cc2c[nH]c3ccccc23)C(N)=O)NC(=O)[C@H](CCCNC(=N)N)NC(=O)[C@@H](Cc2ccccc2)NC(=O)[C@H](Cc2c[nH]cn2)NC1=O  Vss/F (healthy human, both sexes, plasma; subcutaneous, 3.0 mg once daily, day 7, geometric mean): 316 L
COc1cccc2c1C(=O)c1c(O)c3c(c(O)c1C2=O)C[C@@](O)(C(=O)CO)C[C@@H]3O[C@H]1C[C@H](N)[C@H](O)[C@H](C)O1  AUC (mouse, E0771 tumour-bearing, tumor; intravenous, 92 µmol/kg): 1330 µM·h
C=CC(N)CCC(=O)O (centres unmarked)  Cmax (male Sprague-Dawley rat, plasma; oral, 1.0 mg/kg, formulation 5, added: Sar 200 mg/kg): 920 ± 31 ng/mL
[2H]C([2H])([2H])Oc1cc2c(cc1OC([2H])([2H])[2H])C1CC(=O)C(CC(C)C)CN1CC2 (centres unmarked)  dose-normalized AUC(0-inf) (measured: deuterated α-HTBZ; healthy human volunteers, plasma; oral, 6 mg single dose, standard meal): 16.3 ng·h/mL
CCCS(=O)(=O)Nc1ccc(F)c(C(=O)c2c[nH]c3ncc(-c4ccc(Cl)cc4)cc23)c1F  unbound fraction (rapid equilibrium dialysis; 100% human plasma; 5 µM, 4 h): 1.02e-05 ± 3.8e-06
O=C1N=C(N2CCOCC2)CN1c1ccc(Cl)cc1  AUC(0-inf) (beagle dog, both sexes, plasma; oral, 30 mg/kg, tablets, fed, day 5): 54000 ng·h/mL
CCN1C(=O)CNc2ncc(-c3ccc(-c4nc[nH]n4)nc3C)nc21  AUC(0-12h) (human, plasma; oral, 16 mg once daily, multiple doses): 758 ng·h/mL
C=CC(=C)CC[C@]1(C)[C@H](C)C[C@H](OC(=O)CCCCC)[C@@]23C(=C[C@H](O)C[C@@H]12)[C@@H](OC(C)=O)O[C@H]3OC(C)=O  haemolysis (haemolysis; 100 µM): 19.6%
CC(C)[C@H](N)C(=O)NCCCS(=O)(=O)O  oral bioavailability (human, both sexes; oral, 265 mg, immediate-release tablet, from urinary recovery): ~52%
C/C=C/C=C/C=C\CC/C=C/C=C/C(=O)NCC(C)C  amount recovered, maximum (human ileostomy patients, ileal effluent; oral, 5 g TU-100, 4 h, no β-glucuronidase treatment): 139000 ng
CCOC(=O)C1=C[C@@H](OC(CC)CC)[C@H](NC(C)=O)[C@@H](N)C1  elimination rate constant (healthy Indian human, plasma; oral, 75 mg single, test capsule fed): 4.89e-05 ± 2.17e-05 s⁻¹
C=CC(=C)CC[C@]1(C)[C@H](C)C[C@H](OC)[C@@]23C(=C[C@H](OC(=O)[C@@H](C)CC)C[C@@H]12)[C@@H](OC(C)=O)O[C@H]3OC(C)=O  haemolysis (haemolysis; 20 µM): 15.5%
O=C1Nc2ccccc2C(=O)CCc2cc(O)ccc21  kinetic solubility (nephelometry; aqueous buffer; 30 min, pH 6.5): 25 to 50 µg/mL (≈ 93.5 to 187 µM)
O=C(c1ccc(F)c(F)c1Nc1ccc(I)cc1F)N1CC(O)([C@@H]2CCCCN2)C1  AUC(0-24) at steady state (paediatric patients, expansion cohort, plasma; oral, 1.0 mg/kg, mean): 1860 ng·h/mL

For quick reference, copied from above:
C/C=C/C=C/C=C\CC/C=C/C=C/C(=O)NCC(C)C  amount recovered, maximum (human ileostomy patients, ileal effluent; oral, 5 g TU-100, 4 h, no β-glucuronidase treatment): 139000 ng
CCOC(=O)C1=C[C@@H](OC(CC)CC)[C@H](NC(C)=O)[C@@H](N)C1  elimination rate constant (healthy Indian human, plasma; oral, 75 mg single, test capsule fed): 4.89e-05 ± 2.17e-05 s⁻¹
C=CC(=C)CC[C@]1(C)[C@H](C)C[C@H](OC)[C@@]23C(=C[C@H](OC(=O)[C@@H](C)CC)C[C@@H]12)[C@@H](OC(C)=O)O[C@H]3OC(C)=O  haemolysis (haemolysis; 20 µM): 15.5%
O=C1Nc2ccccc2C(=O)CCc2cc(O)ccc21  kinetic solubility (nephelometry; aqueous buffer; 30 min, pH 6.5): 25 to 50 µg/mL (≈ 93.5 to 187 µM)
